Results gathered from unrelated publications.
Parts stem from different laboratories: compare values within a part only.

Study 1
Target: Prothrombin, mature alpha-thrombin (F2, Homo sapiens, UniProt P00734)
Method: aptamer microarray, sandwich
Form: DNA with 2'F-ANA
Matrix: in vitro
Tested at: 200 nM
Setting: whole 15-mer aptamer, many near background
With: Cy3 exosite-II aptamer, 400 nM
Reading: higher = stronger binding
Sequence: GGTTGGTGTGGTTGG
| Modification | mean fluorescence intensity |
| --- | --- |
| 2'F-ANA at 3 4 9 12 14 | 335 a.u. |
| 2'F-ANA at 1 3 4 6 7 8 9 10 11 13 15 | 59.4 a.u. |
| 2'F-ANA at 3 5 6 7 11 12 13 | 141 a.u. |
| 2'F-ANA at 6 8 12 | 925 a.u. |
| 2'F-ANA at 1 5 7 12 15 | 108 a.u. |
| 2'F-ANA at 1 2 5 6 8 9 10 13 | 66.4 a.u. |
| 2'F-ANA at 1 2 3 4 5 6 8 9 10 13 15 | 57.8 a.u. |
| 2'F-ANA at 1 3 6 7 8 11 13 14 15 | 91.7 a.u. |
| 2'F-ANA at 2 3 6 7 10 12 13 | 409 a.u. |
| 2'F-ANA at 2 6 8 9 11 14 15 | 106 a.u. |
| 2'F-ANA at 1 2 3 4 6 9 10 11 12 13 | 57.5 a.u. |
| 2'F-ANA at 1 2 6 8 9 10 13 14 | 51.2 a.u. |
| 2'F-ANA at 1 2 3 6 7 10 12 14 | 50.4 a.u. |
| 2'F-ANA at 1 3 4 5 7 9 10 13 14 15 | 72.8 a.u. |
| 2'F-ANA at 2 3 4 5 6 8 12 | 216 a.u. |
| 2'F-ANA at 2 9 12 13 15 | 569 a.u. |
| 2'F-ANA at 1 2 3 4 5 6 8 9 11 14 15 | 47 a.u. |
| 2'F-ANA at 2 6 9 11 12 13 14 | 306 a.u. |
| 2'F-ANA at 1 2 3 4 9 13 14 | 59.1 a.u. |
| 2'F-ANA at 1 2 3 4 5 6 7 10 11 15 | 46.2 a.u. |
| 2'F-ANA at 1 2 3 6 7 10 12 | 86.4 a.u. |

Study 2
Target: Histone acetyltransferase KAT6A, winged helix 2, GST fusion (KAT6A, Homo sapiens, UniProt Q92794, residues 85-181)
Method: protein binding microarray
Form: double-stranded DNA, one strand shown
Matrix: in vitro
Tested at: not given
Setting: 8-mer, flanks averaged, mean of 2 arrays, mostly near background
Relative to: not given
Reading: higher = stronger binding
Construct (chain): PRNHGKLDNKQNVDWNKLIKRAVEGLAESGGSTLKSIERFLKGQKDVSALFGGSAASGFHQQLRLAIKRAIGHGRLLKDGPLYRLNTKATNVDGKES
| Sequence | E-score |
| --- | --- |
| GTCGTACA | -0.15 |
| CATATATG | -0.00983 |
| AGTACAAC | 0.047 |
| CACCCTTC | -0.00289 |
| GCGCTGAA | -0.0464 |
| ACATTGAG | -0.0356 |
| GGACGACA | 0.0577 |
| GCCGCGCA | 0.2 |
| ATCCGCTA | 0.139 |
| ATGGGCTA | -0.113 |
| CAGGCCAG | 0.11 |
| GTAATGAC | -0.0858 |
| AGATAGTA | 0.00284 |
| AGCCATGG | -0.0736 |
| GGATTACC | -0.0815 |
| ATCTGACG | -0.0787 |
| AATGTACT | -0.187 |

Study 3
Target: Phosphate system positive regulatory protein PHO4, full length, GST-tagged (PHO4, Saccharomyces cerevisiae, UniProt P07270, residues 1-312)
Method: competition protein-binding microarray
Form: double-stranded DNA, one strand shown
Matrix: in vitro
Tested at: 2 µM
Setting: whole 60-bp probe, lowest competitor level
With: Cbf1 competitor, 0.05 µM
Reading: higher = stronger binding
All sequences stand within: … GTCTTGATTCGCTTGACGCTGCTG
Residues (chain): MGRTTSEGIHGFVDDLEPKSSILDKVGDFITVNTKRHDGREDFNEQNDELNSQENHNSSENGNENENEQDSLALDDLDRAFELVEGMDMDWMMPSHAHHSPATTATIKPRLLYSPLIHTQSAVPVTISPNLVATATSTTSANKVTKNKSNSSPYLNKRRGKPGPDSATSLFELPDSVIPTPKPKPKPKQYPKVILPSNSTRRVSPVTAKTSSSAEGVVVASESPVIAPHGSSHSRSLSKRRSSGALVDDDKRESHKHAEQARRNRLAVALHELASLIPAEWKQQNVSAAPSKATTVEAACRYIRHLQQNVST
| Sequence | fluorescence intensity [a.u.] |
| --- | --- |
| ATTTCCCACTTCAACAACGTGCAATAATGGCTCAAT | 14300 |
| AGATATACACGATCGCACATGGTTCCAAGACGGTTA | 9890 |
| CTTTGCTCCATACAGCATGTGGAGCAGGCGTACTTG | 9300 |
| TGCCGTCGATGAGGACACGTTCAGATATGCCAAACA | 9660 |
| ATGTAGTAACTTTTTGATGTGACGGTCGTTAATACC | 4170 |
| GTCCGAAAGGACAATCACATGCAGAGGTTCAAAGTA | 8190 |
| AACCAATACCACCGTCACGTGTTTTCAAGAAAGAAG | 18300 |
| CAACAATATACCCAACACGTGGATTTGCCAGCCTGT | 16800 |
| GTCCCACCAGATTTGCACGTTTTGTTACCCCAGATA | 11300 |
| CAGCAAGACCGGAAACACGTTGTTGGGTAAATACTT | 14200 |
| CTTCTGTAAATTTGGGCTGTGGGTGGACGCGCCCCG | 4790 |
| GTCTTGTCTCATTTTCACGTGACCTTCCCCACTTCA | 11600 |
| GTCTTGTCTCATTGCACCGTGGGTGTCCCCACTTCA | 9450 |
| CATACCCAACCTTGCAGTGTGGGTGAAGATATTTGT | 5870 |
| CGGGGTTAAGTTTGGGGGGTGGGTGGCTTGCAGCAG | 5490 |
| ATCTGTGGGGGCACCAGCGTGACGGGGACGGTTCTA | 6940 |

Study 4
Target: RNA binding protein fox-1 homolog 2, RRM domain, GST-SBP tag (RBFOX2, Homo sapiens, UniProt O43251-10, residues 100-194)
Method: RNA Bind-n-Seq
Form: RNA
Matrix: in vitro
Tested at: 365 nM
Setting: natural RNA segment, single round, ends assumed
Relative to: no-protein control
Reading: higher = stronger binding
All sequences stand within: GGGAGUUCUACAGUCCGACGAUC … UGGAAUUCUCGGGUGCCAA
Construct (chain): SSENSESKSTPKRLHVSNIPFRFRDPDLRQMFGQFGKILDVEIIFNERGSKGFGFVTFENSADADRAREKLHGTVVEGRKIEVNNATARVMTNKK
| Sequence | RBNS enrichment (R) |
| --- | --- |
| CAUUCCUUUCUCUGCGCCUGCCCCCAUCUCAGGGACCAUGAUGUCUCAUCCAGUCCUCUCUUCCUCAGGCCACCCAGGGACAGUUCACAUCUGCAGCCUUCAGAAUGUCC | 0.588 |
| AGGGAAGUUUAGGCCAGAAUGUGGCCAUCCCAGAAACUGAGGCCUCUCUCAGCCUCACCAGUGACAGAGAACAGCUGUGGUUCUCUGCUGGCCUCAGCUGAUCCAUGCUG | 1.15 |
| UAUAGUUUUUACAGUGUGAAUCCAACAUUGGCUCAGUAUGCUAAUGUGACAGUCAACAGUUAUCUAAAGCAGGUGAGCUCUGAUGAACAAAUGUAUUUUCAGUGAGUCUG | 0.261 |
| GAGCCGUCACCAUAAGUAAAUCAAGUCCCUUCCUCCCAGUCACACGGCUGAGCGCAGACGGCUUGUUUUAAAAAGAUGAUGAACAUGACAGUAUUUUGUUUUGCUUUGAU | 0.334 |
| CAGAGAGGGCAGCCCGGUCUCCGGCAGCAGCCCCUUCCAGCUCACGGCUUUCUCCGAUGAAGACAUUAUAGACUUGAAGUAACAGAGUUGAAUCUCAUUUGCCAUCUUUA | 0.289 |
| CCCCACCUUCCCUGUCCUGAUGCCGACAGCUUAGGGAAGGGCAGUGAACUUGCAUAUGGGGCUUAGCCUUCUAGUCACAGCCUCUAUAUUUGAUGCUAGAAAACACAUAU | 0.498 |
| AUGAUCAGAAAGCUGUGAAAGAUGAACUGUAAUACGCAAAGCCAGACCCGGGCGCUGCCGAGACCCCUCGGGGGCUGCACACCCAGCAGCAGCGCACGCCUCCGAAGCCU | 0.352 |
| AGGUCUAUUCGGAUUGCAUAGGGGUAUAUUAAUAUAUUUUAAACUCACCUAGAUUACACUCAAUUGAUACCCACUCAUGAAGAUUUUGCUGAGAUUUUAUGAUUCCAGGU | 0.716 |
| UUACUCCCCCUGAGCAGCGAGCCUGCGUCUGUCUCAGCUGUCCAGCGCUGAGGGCCAGGGUCUUGUGCUGUGGGGCUGGGGGAUGCCCUCUUUUCUAUAUUUAUUUCAUA | 0.457 |
| CCUCUGUUUUUCUGAAGGCUGUUCCAGCAGGGCUGCCCUGUUCAUCAGCGGAUGUUCACUCUGGCCUGCCGUUCCCCGUGGCAUGCGGGGUGAGGGUGGCUUUCUUCCAG | 0.501 |
| CAUCCCCACCCUUCUUGCCAAAGGACCUCUUUUCCCCUAUCCAGAGACCACCCCAGGUGGCAUUCUCUCCCACCUUCUCCUUUGUCCCCCAUCCCCUGUCUCUGUCUUCC | 1.3 |
| CAUUUUGAGAUGAACAGAACAAUGGGCUGAGUUAUAAAAAGCGUGUAUUGAAUUUAAGAAGACAGACUAGCACAAAACACAGAAUUCGUGUUAACCAAAGGAGGCAUUGA | 0.722 |

Study 5
Target: Interferon regulatory factor 7, full length, phosphomimetic (IRF7, Homo sapiens, UniProt Q92985, residues 1-503, S471D/S472D/S475D/S476D/S477D/S483D/S484D/S487D)
UniProt Q92985, sequence (whole entry, unmodified, looked up): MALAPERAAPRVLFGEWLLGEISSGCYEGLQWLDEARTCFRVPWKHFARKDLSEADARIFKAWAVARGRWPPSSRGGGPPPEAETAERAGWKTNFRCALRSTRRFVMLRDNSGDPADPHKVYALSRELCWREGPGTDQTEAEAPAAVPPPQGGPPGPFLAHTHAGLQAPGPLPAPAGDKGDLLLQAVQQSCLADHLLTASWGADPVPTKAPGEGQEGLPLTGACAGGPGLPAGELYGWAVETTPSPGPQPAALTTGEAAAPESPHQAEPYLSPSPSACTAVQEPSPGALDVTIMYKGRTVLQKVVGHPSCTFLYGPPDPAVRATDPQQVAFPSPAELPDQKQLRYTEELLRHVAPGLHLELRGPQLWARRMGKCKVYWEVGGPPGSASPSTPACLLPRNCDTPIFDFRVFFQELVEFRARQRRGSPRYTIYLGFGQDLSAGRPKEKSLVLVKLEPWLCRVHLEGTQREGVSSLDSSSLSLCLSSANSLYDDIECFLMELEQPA
Method: protein-binding microarray
Form: double-stranded DNA, one strand shown
Matrix: in vitro
Tested at: 2200 nM top
Setting: 60-bp whole probe
With: salmon DNA 0.4 mg/ml
Relative to: random background probes
Reading: higher = stronger binding
All sequences stand within: GCCTAGCAC … GTCTTGATTCGCTTGACGCTGCTG
| Sequence | fitted relative affinity [z-score] |
| --- | --- |
| TTAGAACTGAGTTTCGAGTAGTGCTAG | 1.78 |
| TGGGCTGTGGGTTTGAGTCTGTGCTAG | -0.991 |
| TCACTTTCACTTCTCCCACTGTGCTAG | 12.8 |
| GACCGTCTCGGTATCGGGACGTGCTAG | 0.14 |
| GACGATATTAGTCTCGAGACGTGCTAG | 0.498 |
| GTCAGTTTTGAGCTCTGTCTGTGCTAG | 0.704 |
| TTAGGACTGGGGTATCGGTTCGTGCTA | 0.16 |
| TGAGGTTCCGGTTTCGGTTAGTGCTAG | 8.22 |
| TTCGGTATCGGTTTCGGTTAGTGCTAG | 7.74 |
| TTAGGTCTCGGAGTGGGTTAGTGCTAG | -0.296 |
| TCAAATTTCCCTCTCCCACTGTGCTAG | 1.54 |
| TTAGGTTTCGGGTATCGGTTCGTGCTA | 7.02 |
| TTAGGTTTCGGTATCGATTAGTGCTAG | 6.67 |
| TGTTTTTCATTGTTTTTCATCGTGCTA | 2.32 |
| TTAGGACTGGGTCTCGGGTAGTGCTAG | -0.707 |
| TTAGGTCTCGGTCTCGTTTAGTGCTAG | 0.957 |
| GACGTTATCGGGTATCGGGACGTGCTA | 0.31 |

Repeated from above (study 5):
| Sequence | fitted relative affinity [z-score] |
| --- | --- |
| TGTTTTTCATTGTTTTTCATCGTGCTA | 2.32 |
| TTAGGACTGGGTCTCGGGTAGTGCTAG | -0.707 |
| TCACTTTCACTTCTCCCACTGTGCTAG | 12.8 |
| TGGGCTGTGGGTTTGAGTCTGTGCTAG | -0.991 |
| GACGTTATCGGGTATCGGGACGTGCTA | 0.31 |
